Literature values that unrelated publications cite.
Numbered parts are unrelated; values within a part may stem from several laboratories. ± gives the spread as reported.
UniProt P11229, sequence (whole entry, looked up): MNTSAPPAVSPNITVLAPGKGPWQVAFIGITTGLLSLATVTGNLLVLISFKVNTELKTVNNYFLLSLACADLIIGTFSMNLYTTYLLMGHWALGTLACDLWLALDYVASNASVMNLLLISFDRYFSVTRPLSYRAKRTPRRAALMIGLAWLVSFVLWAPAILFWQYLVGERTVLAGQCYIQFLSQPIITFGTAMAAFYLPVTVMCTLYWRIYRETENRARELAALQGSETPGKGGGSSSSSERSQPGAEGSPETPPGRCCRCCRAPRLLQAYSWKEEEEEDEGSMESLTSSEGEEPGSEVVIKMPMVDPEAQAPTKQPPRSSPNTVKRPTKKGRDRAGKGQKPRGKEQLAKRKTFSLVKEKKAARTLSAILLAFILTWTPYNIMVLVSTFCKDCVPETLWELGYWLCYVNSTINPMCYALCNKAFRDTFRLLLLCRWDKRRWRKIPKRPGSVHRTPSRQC
UniProt P46098, sequence (whole entry, looked up): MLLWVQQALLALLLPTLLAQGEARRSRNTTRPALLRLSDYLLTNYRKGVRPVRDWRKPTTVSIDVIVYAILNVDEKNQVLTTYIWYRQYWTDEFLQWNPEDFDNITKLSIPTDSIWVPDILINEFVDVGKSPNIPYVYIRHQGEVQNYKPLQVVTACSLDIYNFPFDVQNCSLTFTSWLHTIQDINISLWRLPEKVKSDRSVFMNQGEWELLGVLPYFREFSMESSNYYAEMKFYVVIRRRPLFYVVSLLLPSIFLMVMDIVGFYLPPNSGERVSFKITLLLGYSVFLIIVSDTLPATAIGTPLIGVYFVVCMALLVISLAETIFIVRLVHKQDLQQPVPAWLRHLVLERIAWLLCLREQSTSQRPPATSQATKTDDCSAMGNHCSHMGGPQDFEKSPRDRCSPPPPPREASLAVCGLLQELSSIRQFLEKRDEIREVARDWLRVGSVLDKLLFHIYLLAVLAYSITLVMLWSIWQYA

Sample 1
Target: HLA class I histocompatibility antigen, A alpha chain, allele A*80:01 (Homo sapiens, UniProt P04439)
Effect on: peptide-MHC binding
Form: peptide
Molecule | IC50 [µM]
LSDNLSLVY | 0.169
TTFPVNGGY | 2.19
RSVWIPGRW | > 20
MQIDGGEGV | > 20
FQAGWEDPT | > 20
ARLSSPIVL | > 20
FLAFFSNGV | > 20
ISDEFMWRY | 0.163
HVTGRWNWW | > 20
LKEKSSLRY | > 20
KVGFIMLFH | 0.001
WHTTKGAAL | > 20
KAYKIISLK | > 20
HAAVRRNAF | > 20

Mixed results
SMILES | target or system | test | system | setting | how to read | quantity | value
C[N+]1(C)CCC(OC(=O)C(c2ccccc2)c2ccccc2)CC1 | Muscarinic acetylcholine receptor M1 (CHRM1, Homo sapiens, UniProt P11229) | inhibitor | – | historical measurement | – | IC50 | 0.0045 µM
Cn1ncc2c(NC(=O)NCc3ccc(C(F)(F)F)cc3CCC(C)(C)C)cccc21 | TRPV1 | calcium flux, antagonist | HEK293 | together with: capsaicin | – | IC50 | 0.007 µM
COc1cccc(C2(O)CCCCC2CN(C)C)c1 (stereo not shown) | – | – | human, plasma | dose not given, range of reported values | – | AUC | 2.55 to 11400 µM·h
COc1cc(Cc2cnc(N)nc2N)cc(OC)c1OC | OCT2 | – | – | – | – | Ki | 6.97 µM
NC1CCCCC1N.O=C([O-])C(=O)[O-].[Pt+2] (stereo not shown) | – | measured: total platinum | mice, plasma | intravenous, 8.34 mg Pt/kg | – | half-life alpha | 2.28 min
CC(C)C[C@H](NC(=O)[C@H](Cc1ccccc1)NC(=O)c1cnccn1)B(O)O | ELANE | enzyme activity, inhibitor | – | 10 µM | – | inhibition | 40%
OCc1ncc2n1-c1ccc(Cl)cc1C(c1ccccc1F)=NC2 | – | – | – | single-compartment model | – | rate constant out of compartment | 0 L/h
O=C(c1cc(F)cc(N2CCNCC2)c1)N1CCN(C(=O)c2ccc(O[C@H]3CCNC3)c(C3CCCCC3)c2)CC1 | human β-catenin/BCL9 interaction | inhibitor, AlphaScreen | – | – | – | Ki | 5.2 ± 0.74 µM
CC(=O)N(C)[C@H]1CCN(C(=O)c2cnc3c(c2)C[C@](C)(c2ccc(F)cc2)N3)C1 | – | – | Wistar Han rats, male | 50 mg/kg/day, NOAEL dose | – | Cmax | 39.9 µM
CN1[C@@H]2CC[C@H]1C[C@@H](OC(=O)c1cc(Cl)cc(Cl)c1)C2 | 5-hydroxytryptamine receptor 3A (HTR3A, Homo sapiens, UniProt P46098) | – | – | – | – | Hill coefficient | 0.8
C[C@]12CCC(=O)C=C1CC[C@@H]1[C@@H]2[C@@H](O)C[C@@]2(C)[C@H]1CC[C@]2(O)C(=O)CO | – | – | human, plasma | dose not given, range of reported values | – | AUC | 0.853 to 8.15 µM·h
NS(=O)(=O)OC[C@@H]1C[C@@H](n2ccc3c(N[C@H]4CCc5ccccc54)ncnc32)C[C@@H]1O | – | – | human paediatric relapsed/refractory AML | together with: azacitidine and fludarabine | – | MTD | 20 mg/m²
Cc1nnc2n1-c1ccc(Cl)cc1C(c1ccccc1)=NC2 | – | – | human | together with: ritonavir | relative to: with over without ritonavir | AUC(0-t) ratio | 2.48
O=C(Nc1ccc(OCCO)c(-c2ccc(F)cc2)c1)c1ccc(OCCO)c(-c2ccc(F)c(F)c2)c1 | human β-catenin/BCL9 interaction | inhibitor, AlphaScreen | – | – | – | Ki | 37 ± 2.7 µM

Repeated from above (mixed results):
SMILES | target or system | test | system | setting | how to read | quantity | value
CC(=O)N(C)[C@H]1CCN(C(=O)c2cnc3c(c2)C[C@](C)(c2ccc(F)cc2)N3)C1 | – | – | Wistar Han rats, male | 50 mg/kg/day, NOAEL dose | – | Cmax | 39.9 µM
CN1[C@@H]2CC[C@H]1C[C@@H](OC(=O)c1cc(Cl)cc(Cl)c1)C2 | 5-hydroxytryptamine receptor 3A (HTR3A, Homo sapiens, UniProt P46098) | – | – | – | – | Hill coefficient | 0.8
